Experimental data of several laboratories.
Values joined by “and” are separate records of one study, mostly repeats; a detail may differ. Numbers after ± are the reported error. ≈ marks a conversion by molar mass, not a printed value.
Organism: Klebsiella pneumoniae

SMILES = Cc1c(CN(C)C(=O)/C=C/c2cnc3c(c2)CCC(=O)N3)oc2ccccc12; test = broth microdilution; system = AR-0066; endpoint = MIC; result = > 32 µg/mL
SMILES = N=C(N)c1ccc(OCc2ccc(-c3ccccc3)cc2COc2ccc(C(=N)N)cc2)cc1; test = checkerboard; system = ATCC 13883; conditions = unit not given, together with: rifampicin; how to read = lower = stronger synergy; endpoint = FICI; result = ≤ 0.023
SMILES = N=C(N)c1ccc(/N=N/Nc2ccc(C(=N)N)cc2)cc1; test = bacterial growth, OD600; conditions = overnight; endpoint = MIC90; result = 5.85 ± 0.59 mM
SMILES = N=C(N)c1ccc(OCc2ccccc2COc2ccc(C(=N)N)cc2)cc1; system = ATCC 13883; conditions = concentration not given, together with: rifampicin; endpoint = MIC in combination; result = 12.5 µg/mL
SMILES = Cc1c(CN(C)C(=O)/C=C/c2cnc3c(c2)CC(NC(=O)OC(C)(C)C)C(=O)N3)oc2ccccc12 (stereo not drawn); test = broth microdilution; system = AR-0548; endpoint = MIC; result = > 32 µg/mL
SMILES = N=C(N)c1ccc(OCc2cc(COc3ccc(C(=N)N)cc3)cc(-c3ccccc3)c2)cc1; test = checkerboard; system = ATCC 13883; conditions = unit not given, together with: rifampicin; how to read = lower = stronger synergy; endpoint = FICI; result = ≤ 0.016
SMILES = O=C(N[C@H](CO)[C@H](O)c1ccc([N+](=O)[O-])cc1)C(Cl)Cl; test = broth microdilution; system = NCTC 13438; how to read = relative to: 5% CO2 over ambient air; endpoint = MIC fold shift; result = 0.5
SMILES = N=C(N)c1ccc(OCc2cccc(COc3ccc(C(=N)N)cc3)c2)cc1; system = ATCC 13883; conditions = concentration not given, together with: rifampicin; endpoint = MIC in combination; result = 25 µg/mL
SMILES = C[C@@H](O)[C@H]1C(=O)N2C(C(=O)O)=C(S[C@@H]3CN[C@H](C(=O)N(C)C)C3)[C@H](C)[C@H]12; system = ALE, mouse, intranasal infection, lung; conditions = intraperitoneal, 10 mg/kg, 24 h; endpoint = lung bacterial load; result = 4.13 log10 CFU/g and 4.93 log10 CFU/g and 4.79 log10 CFU/g and 4.12 log10 CFU/g and 4.94 log10 CFU/g and 5.6 log10 CFU/g and 4.34 log10 CFU/g and 4.71 log10 CFU/g
SMILES = C[C@H]1COc2c(N3CCN(C)CC3)c(F)cc3c(=O)c(C(=O)O)cn1c23; test = broth microdilution; system = NCTC 13438; how to read = relative to: 5% CO2 over ambient air; endpoint = MIC fold shift; result = 2
SMILES = C[C@H]1COc2c(N3CCN(C)CC3)c(F)cc3c(=O)c(C(=O)O)cn1c23; system = ATCC 27736; conditions = 20 h; endpoint = MBC; result = 0.06 µg/mL (≈ 0.166 µM)
SMILES = CN(C)[C@@H]1C(O)=C(C(N)=O)C(=O)[C@@]2(O)C(O)=C3C(=O)c4c(O)cccc4[C@@](C)(O)[C@H]3C[C@@H]12; test = broth microdilution; system = NCTC 13438; how to read = relative to: 5% CO2 over ambient air; endpoint = MIC fold shift; result = 0.5
SMILES = N=C(N)c1ccc(OCc2cc(Br)cc(COc3ccc(C(=N)N)cc3)c2)cc1; test = checkerboard; system = ATCC 13883; conditions = unit not given, together with: rifampicin; how to read = lower = stronger synergy; endpoint = FICI; result = ≤ 0.023
SMILES = CN[C@@H]1[C@@H](O[C@H]2O[C@H](CO)[C@@H](N)[C@H](O)[C@H]2O)OC2C[C@@H](N)[C@@H](O[C@H]3[C@H](O)[C@@H](O)[C@H](N)C[C@@H]3N)OC2[C@@H]1O (stereo partly drawn); test = broth microdilution; system = NCTC 13438; how to read = relative to: 5% CO2 over ambient air; endpoint = MIC fold shift; result = 1
SMILES = C[C@@H](O)[C@H]1C(=O)N2C(C(=O)O)=C(SCCN=CN)C[C@H]12; endpoint = MIC90; result = 8 µg/mL

For quick reference, copied from above:
SMILES = O=C(N[C@H](CO)[C@H](O)c1ccc([N+](=O)[O-])cc1)C(Cl)Cl; test = broth microdilution; system = NCTC 13438; how to read = relative to: 5% CO2 over ambient air; endpoint = MIC fold shift; result = 0.5
